Published values collected from several papers.
Each line is one published result; not all experiments were run side by side. Numbers after ± are the reported error. Values after ≈ are worked out from the molar mass of the structure shown.

Structure (SMILES)	tested on	assay	test system	setting	scale	quantity	value
CCCCCCCCCCCCCCCC(=O)N[C@@H](CCC(=O)NCCOCCOCCC(=O)NCCOCCOCCC(=O)NCCCC[C@H](NC(=O)[C@H](CC(=O)O)NC(=O)[C@H](CC(C)C)NC(=O)[C@H](Cc1ccc(O)cc1)NC(=O)[C@H](CCCCN)NC(=O)[C@H](CO)NC(=O)[C@H](Cc1ccc(O)cc1)NC(=O)[C@H](CC(=O)O)NC(=O)[C@H](CO)NC(=O)[C@@H](NC(=O)[C@H](Cc1ccccc1)NC(=O)[C@@H](NC(=O)CNC(=O)[C@H](CCC(N)=O)NC(=O)[C@@H](CO)NC(=O)[C@@H](N)Cc1c[nH]cn1)[C@@H](C)O)[C@@H](C)O)C(=O)N[C@@H](CCCNC(=N)N)C(=O)N[C@@H](CCCNC(=N)N)C(=O)N[C@@H](C)C(=O)N[C@@H](CCC(N)=O)C(=O)N[C@@H](CC(=O)O)C(=O)N[C@@H](Cc1ccccc1)C(=O)N[C@H](C(=O)N[C@@H](CCC(N)=O)C(=O)N[C@@H](Cc1c[nH]c2ccccc12)C(=O)N[C@@H](CC(C)C)C(=O)N[C@@H](CC(C)C)C(=O)N[C@@H](CC(N)=O)C(=O)N[C@H](C(=O)NCC(=O)NCC(=O)N1CCC[C@H]1C(=O)N[C@@H](CO)C(=O)N[C@@H](CO)C(=O)NCC(=O)N[C@@H](C)C(=O)N1CCC[C@H]1C(=O)N1CCC[C@H]1C(=O)N1CCC[C@H]1C(=O)N[C@@H](CO)C(N)=O)[C@@H](C)O)C(C)C)C(=O)O	–	–	female Sprague-Dawley rats	subcutaneous, 500 µg/kg once daily, 14 days	–	serum total bilirubin	2.2 ± 0.4 µmol/L
CC[C@H](C)[C@H](NC(=O)[C@H](CCCCN)NC(=O)[C@H](CCCCN)NC(=O)[C@H](CC(C)C)NC(=O)[C@H](Cc1c[nH]c2ccccc12)NC(=O)CN)C(=O)NCC(=O)N[C@@H](CCCCN)C(=O)N[C@@H](CCCCN)C(=O)N[C@H](C(=O)N[C@@H](CCC(=O)O)C(=O)N[C@@H](CCCNC(=N)N)C(=O)N[C@H](C(=O)NCC(=O)N[C@@H](CCC(N)=O)C(=O)N[C@@H](Cc1c[nH]cn1)C(=O)N[C@H](C(=O)N[C@@H](CCCNC(=N)N)C(=O)N[C@@H](CC(=O)O)C(=O)N[C@@H](C)C(=O)N[C@H](C(=O)N[C@H](C(=O)N[C@@H](CCC(N)=O)C(=O)N[C@H](C(=O)N[C@H](C(=O)NCC(=O)N[C@H](C(=O)N[C@@H](C)C(=O)N[C@@H](CCC(N)=O)C(=O)N[C@@H](CCC(N)=O)C(=O)N[C@@H](C)C(=O)N[C@@H](C)C(=O)N[C@@H](CC(N)=O)C(=O)N[C@H](C(=O)N[C@@H](C)C(=O)N[C@@H](C)C(=O)N[C@H](C(=O)N[C@@H](CC(C)C)C(=O)N[C@@H](CCCCN)C(N)=O)[C@@H](C)O)C(C)C)C(C)C)[C@@H](C)CC)[C@@H](C)O)[C@@H](C)CC)[C@@H](C)O)[C@@H](C)O)C(C)C)[C@@H](C)CC	Klebsiella pneumoniae	–	DSM 30104, CAMHB with 10% mouse serum	150 mM NaCl	–	MIC	4 µg/mL (≈ 0.952 µM)
CC[C@H](C)[C@@H]1NC(=O)[C@H](CCCNC(=N)N)NC(=O)[C@H](CO)NC(=O)[C@H](CCC(=O)O)NC(=O)[C@H](CC(=O)O)NC(=O)CNC(=O)CNC(=O)[C@H]([C@@H](C)O)NC(=O)[C@H](Cc2ccccc2)NC(=O)[C@H](CO)NC(=O)[C@H]([C@@H](C)O)NC(=O)[C@H](C)NC(=O)[C@@H]2CSSC[C@@H](C(=O)N[C@@H](Cc3ccc(O)cc3)C(=O)N[C@@H](Cc3ccccc3)C(=O)N[C@H](C(=O)N[C@H](C(=O)NCC(=O)O)[C@@H](C)O)[C@@H](C)O)NC(=O)[C@H]([C@@H](C)O)NC(=O)[C@H](CSSC[C@H](NC(=O)[C@H](CCC(=O)O)NC(=O)[C@H](CO)NC(=O)[C@H](CCCCN)NC(=O)[C@H](Cc3ccc(O)cc3)NC(=O)[C@@H]3CCCN3C(=O)[C@H](Cc3ccccc3)NC(=O)[C@H](CCCCN)NC(=O)[C@H](CCCNC(=N)N)NC(=O)[C@H](CCCCN)NC(=O)[C@H](CCCCN)NC(=O)[C@H](Cc3ccc(O)cc3)NC(=O)[C@@H]3CCCN3C(=O)[C@@H](NC(=O)[C@H](CC(=O)O)NC(=O)[C@H](CCCCN)NC(=O)[C@H](CCCCN)NC(=O)[C@@H](NC(=O)[C@@H](NC(=O)[C@@H](N)CCC(=O)O)C(C)C)[C@@H](C)CC)[C@@H](C)O)C(=O)N[C@@H](CC(C)C)C(=O)N[C@@H](CCCCN)C(=O)N[C@@H](C)C(=O)N2)NC(=O)[C@H](CCCCN)NC(=O)[C@H](Cc2ccccc2)NC(=O)[C@H](Cc2ccccc2)NC(=O)CNC(=O)[C@@H]2CCCN2C(=O)[C@H](CCCCN)NC(=O)CNC(=O)[C@H](CCC(=O)O)NC(=O)[C@H](CCC(N)=O)NC1=O	KCNQ4 (Homo sapiens, UniProt P56696, D266G)	potassium current, whole-cell patch clamp	HEK-293T	–	–	Hill slope	2.11 ± 0.09
CS(=O)(=O)NCC1CCOC2(CCN(C(=O)C3(c4ccccc4)CCC3)CC2)C1 (stereo not shown)	Polyprotein P1234, nsP2 (Chikungunya virus, UniProt Q8JUX6)	nsP2 ATPase activity, inhibitor, ADP-Glo	–	high micromolar	–	nsP2 ATPase inhibition	inactive
O=C1SCCC1NC(C(=O)NCc1ccccc1)C1CC1 (stereo not shown)	TST (Homo sapiens, UniProt Q16762)	activator	–	17.1 µM, versus potassium cyanide, together with: sodium thiosulfate 60 mM	–	Vmax	0.17 ± 0.01 mM/s
CC(C)(C)OC(=O)C[C@H](NC(=O)OCc1ccccc1)C(=O)CBr	Replicase polyprotein 1ab, main protease (rep, Severe acute respiratory syndrome-related coronavirus, UniProt P0C6X7)	covalent inhibitor	–	–	–	time constant of irreversible step	> 300 min
CCCCCCCCCCCCCCCc1cccc(O)c1C(=O)O	Spike glycoprotein (Severe acute respiratory syndrome coronavirus 2, UniProt P0DTC2)	binding, biolayer interferometry	–	–	–	kon	124 M⁻¹ s⁻¹
COc1cc([N+](=O)[O-])cc(/C=N/NC(=O)[C@H]2COc3ccccc3O2)c1O	uncharacterized protein (Candidatus Liberibacter solanacearum, UniProt A0A094YYW1)	–	–	–	–	koff	0.382 s⁻¹
CC(=O)N[C@@H](Cc1cn([C@@H]2O[C@H](CO)[C@H](O)[C@H](O)[C@H]2O)nn1)C(=O)NCC(=O)N[C@@H](C)C(=O)NCC(=O)N[C@@H](C)C(=O)NCC(=O)N1CCC[C@H]1C(=O)N[C@@H](CO)C(=O)NCC(=O)N[C@@H](C)C(=O)NCC(=O)N[C@@H](C)C(=O)NCC(=O)N1CCC[C@H]1C(=O)N[C@@H](CO)C(=O)NCC(=O)N[C@@H](C)C(=O)NCC(=O)N[C@@H](C)C(=O)NCC(=O)N1CCC[C@H]1C(=O)N[C@@H](CO)C(=O)NCC(=O)N[C@@H](C)C(=O)NCC(=O)N[C@@H](C)C(=O)NCC(=O)N1CCC[C@H]1C(=O)N[C@@H](CO)C(=O)NCC(=O)N[C@@H](C)C(=O)NCC(=O)N[C@@H](C)C(=O)NCC(=O)N1CCC[C@H]1C(=O)N[C@@H](Cc1cn([C@@H]2O[C@H](CO)[C@H](O)[C@H](O)[C@H]2O)nn1)C(=O)NCC(=O)NCC(=O)NCC(=O)NCC(N)=O	ctxB, pentamer (Vibrio cholerae, UniProt P01556)	–	–	concentration not given	baseline: galactose	inhibition potency	60 fold
CC(=O)NCCOCCOCCOCCn1cc(CNC(=O)c2cc(O[C@H]3O[C@H](CO)[C@H](O)[C@H](O)[C@H]3O)cc([N+](=O)[O-])c2)nn1	ctxB (Vibrio cholerae, UniProt P01556)	binding	–	–	–	log IC50	-2.39
CC[C@H](C)[C@H](NC(=O)[C@H](CCCN)NC(=O)[C@H](CC(=O)O)NC(=O)[C@H](CC(C)C)NC(=O)C(C)(CC(C)C)NC(=O)[C@@H](NC(=O)[C@H](CO)NC(=O)[C@H](Cc1ccc(O)cc1)NC(=O)[C@H](CC(=O)O)NC(=O)[C@H](CO)NC(=O)[C@@H](NC(=O)[C@H](Cc1ccccc1)NC(=O)[C@@H](NC(=O)CNC(=O)[C@H](CCC(=O)O)NC(=O)C(C)(C)NC(=O)[C@@H](N)Cc1ccc(O)cc1)[C@@H](C)O)[C@@H](C)CC)[C@@H](C)CC)C(=O)N[C@@H](Cc1c[nH]cn1)C(=O)N[C@@H](CCC(N)=O)C(=O)NC(C)(C)C(=O)N[C@@H](CC(=O)O)C(=O)N[C@@H](Cc1ccccc1)C(=O)N[C@H](C(=O)N[C@@H](CCC(=O)O)C(=O)N[C@@H](Cc1ccc(O)cc1)C(=O)N[C@@H](CCCCNC(=O)COCCOCCNC(=O)COCCOCCNC(=O)CC[C@H](NC(=O)CCCCCCCCCCCCCCCCCCC(=O)O)C(=O)O)C(=O)N[C@@H](CC(C)C)C(=O)N[C@@H](CCC(=O)O)C(=O)NCC(=O)NCC(=O)N1CCC[C@H]1C(=O)N[C@@H](CO)C(=O)N[C@@H](CO)C(=O)NCC(=O)N[C@@H](C)C(=O)N1CCC[C@H]1C(=O)N1CCC[C@H]1C(=O)N1CCC[C@H]1C(=O)N[C@@H](CO)C(N)=O)C(C)C (stereo partly shown)	–	–	human	subcutaneous, 0.3 to 25 mg single dose, range	–	tmax	8 to 96 h
CCCCCCCCCCCCCCCC(=O)N[C@@H](CCC(=O)NCCCC[C@H](NC(=O)[C@H](CC(=O)O)NC(=O)[C@H](CO)NC(=O)[C@@H](NC(=O)[C@H](Cc1ccccc1)NC(=O)[C@@H](NC(=O)CNC(=O)[C@H](CCC(N)=O)NC(=O)[C@H](C)NC(=O)[C@@H](Cc1ccc(O)cc1)NC(C)=O)[C@@H](C)O)[C@@H](C)O)C(=O)N[C@@H](CO)C(=O)N[C@@H](CCCCN)C(=O)N[C@@H](Cc1ccc(O)cc1)C(=O)N[C@@H](CC(C)C)C(=O)N[C@@H](CC(=O)O)C(=O)N[C@@H](CCC(=O)O)C(=O)N[C@@H](CCCNC(=N)N)C(=O)N[C@@H](C)C(=O)N[C@@H](C)C(=O)N[C@@H](CCC(N)=O)C(=O)N[C@@H](CC(=O)O)C(=O)N[C@@H](Cc1ccccc1)C(=O)N[C@H](C(=O)N[C@@H](CCC(N)=O)C(=O)N[C@@H](Cc1c[nH]c2ccccc12)C(=O)N[C@@H](CC(C)C)C(=O)N[C@@H](CC(C)C)C(=O)N[C@@H](CCC(=O)O)C(=O)NCC(=O)NCC(=O)N1CCC[C@H]1C(=O)N[C@@H](CO)C(=O)N[C@@H](CO)C(=O)NCC(=O)N[C@@H](C)C(=O)N1CCC[C@H]1C(=O)N1CCC[C@H]1C(=O)N1CCC[C@H]1C(=O)N[C@@H](CO)C(N)=O)C(C)C)C(=O)O	–	–	cynomolgus monkey, plasma	intravenous, 0.0031 mg/kg	–	clearance	0.102 to 0.141 mL/min/kg
CC(C)C[C@@H]1NC(=O)[C@H](CCCNC(=N)N)NC(=O)[C@@H]2CCCN2C(=O)[C@@H]2CSSC[C@H](NC(=O)CNC(=O)[C@@H]3CCCN3C(=O)[C@H](CCCCN)NC(=O)[C@H](CC(=O)O)NC(=O)[C@@H](NC(=O)CN)C(C)C)C(=O)N[C@@H](CCCNC(=N)N)C(=O)N[C@@H](Cc3ccc(O)cc3)C(=O)N[C@@H](CC(C)C)C(=O)N[C@@H](Cc3ccccc3)C(=O)NCC(=O)NCC(=O)N[C@H]3CSSC[C@H](NC(=O)CNC1=O)C(=O)N[C@@H](CCCCN)C(=O)NCC(=O)N[C@@H](CCCCN)C(=O)NCC(=O)N[C@@H](Cc1c[nH]cn1)C(=O)N[C@@H](CC(=O)O)C(=O)N[C@@H](Cc1ccc(O)cc1)C(=O)N[C@H](C(=O)N[C@@H](C)C(=O)N[C@@H](Cc1c[nH]c4ccccc14)C(=O)N[C@@H](CC(=O)O)C(=O)NCC(=O)N[C@H](C(=O)N[C@@H](Cc1ccccc1)C(=O)N[C@@H](CO)C(=O)N[C@@H](CC(=O)O)C(=O)O)[C@@H](C)O)CSSC[C@H](NC(=O)[C@H](CC(=O)O)NC(=O)[C@H](CC(=O)O)NC(=O)[C@H](CC(=O)O)NC(=O)[C@H](CO)NC(=O)[C@H](CCCCN)NC3=O)C(=O)N2	SCN5A (Homo sapiens, UniProt Q14524)	sodium current, automated patch clamp	HEK293	1 µM, 50 ms depolarizing pulse	baseline: compound over control	inactivation time constant ratio	1.22 ± 0.04

Excerpt of the above:
Structure (SMILES)	tested on	assay	test system	setting	scale	quantity	value
CCCCCCCCCCCCCCCC(=O)N[C@@H](CCC(=O)NCCOCCOCCC(=O)NCCOCCOCCC(=O)NCCCC[C@H](NC(=O)[C@H](CC(=O)O)NC(=O)[C@H](CC(C)C)NC(=O)[C@H](Cc1ccc(O)cc1)NC(=O)[C@H](CCCCN)NC(=O)[C@H](CO)NC(=O)[C@H](Cc1ccc(O)cc1)NC(=O)[C@H](CC(=O)O)NC(=O)[C@H](CO)NC(=O)[C@@H](NC(=O)[C@H](Cc1ccccc1)NC(=O)[C@@H](NC(=O)CNC(=O)[C@H](CCC(N)=O)NC(=O)[C@@H](CO)NC(=O)[C@@H](N)Cc1c[nH]cn1)[C@@H](C)O)[C@@H](C)O)C(=O)N[C@@H](CCCNC(=N)N)C(=O)N[C@@H](CCCNC(=N)N)C(=O)N[C@@H](C)C(=O)N[C@@H](CCC(N)=O)C(=O)N[C@@H](CC(=O)O)C(=O)N[C@@H](Cc1ccccc1)C(=O)N[C@H](C(=O)N[C@@H](CCC(N)=O)C(=O)N[C@@H](Cc1c[nH]c2ccccc12)C(=O)N[C@@H](CC(C)C)C(=O)N[C@@H](CC(C)C)C(=O)N[C@@H](CC(N)=O)C(=O)N[C@H](C(=O)NCC(=O)NCC(=O)N1CCC[C@H]1C(=O)N[C@@H](CO)C(=O)N[C@@H](CO)C(=O)NCC(=O)N[C@@H](C)C(=O)N1CCC[C@H]1C(=O)N1CCC[C@H]1C(=O)N1CCC[C@H]1C(=O)N[C@@H](CO)C(N)=O)[C@@H](C)O)C(C)C)C(=O)O	–	–	female Sprague-Dawley rats	subcutaneous, 500 µg/kg once daily, 14 days	–	serum total bilirubin	2.2 ± 0.4 µmol/L
